Measurements of several laboratories.
Numbered parts are unrelated; each lists some results of a single study.

Series 1 — method: aptamer microarray, sandwich; form: DNA with 2'F-ANA; sample: in vitro; concentration: 200 nM; together with: Cy3 exosite-II aptamer, 400 nM; reading: higher = stronger binding; sequence: GGTTGGTGTGGTTGG
Target: Prothrombin, mature alpha-thrombin (F2, Homo sapiens, UniProt P00734)
Notes: whole 15-mer aptamer, many near background
Under “mean fluorescence intensity”, `2'F-ANA at 4 5 7 9 12 13 14` is recorded as 58 a.u.
For `2'F-ANA at 1 3 4 6 7 8 9 10 12 13 14`, “mean fluorescence intensity” read 57.8 a.u.
For `2'F-ANA at 1 2 5 6 7 8 10 11 14`, “mean fluorescence intensity” read 48 a.u.
`2'F-ANA at 1 2 3 5 7 9 12 14`: “mean fluorescence intensity” 50.6 a.u.
`2'F-ANA at 2 5 8 11 13`: “mean fluorescence intensity” 95 a.u.
Under “mean fluorescence intensity”, `2'F-ANA at 3 4 5 7 8 9 11` is recorded as 92.2 a.u.
`2'F-ANA at 1 6 10 14 15`: “mean fluorescence intensity” 44.9 a.u.
Under “mean fluorescence intensity”, `2'F-ANA at 2 3 7 8 14 15` is recorded as 486 a.u.
`2'F-ANA at 3 4 5 6 8 9 11 12 13 14` — result for “mean fluorescence intensity”: 186 a.u.
For `2'F-ANA at 2 3 5 6 7 8 9 10 12 13`, “mean fluorescence intensity” read 54.6 a.u.
`2'F-ANA at 1 2 4 6 9 11 12 14` — result for “mean fluorescence intensity”: 52 a.u.
`2'F-ANA at 1 2 6 7 9 10 11` — result for “mean fluorescence intensity”: 55.3 a.u.
`2'F-ANA at 1 2 4 7 9 10 11 12 13`: “mean fluorescence intensity” 57.2 a.u.
For `2'F-ANA at 3 6 8 12 15`, “mean fluorescence intensity” read 1330 a.u.
Under “mean fluorescence intensity”, `2'F-ANA at 2 4 6 7 9 11 14` is recorded as 73.2 a.u.
`2'F-ANA at 2 3 4 6 8 10 11 12`: “mean fluorescence intensity” 254 a.u.
`2'F-ANA at 3 4 8 12 13 15` — result for “mean fluorescence intensity”: 755 a.u.
Under “mean fluorescence intensity”, `2'F-ANA at 1 2 4 5 7 9 11 15` is recorded as 49.3 a.u.
Under “mean fluorescence intensity”, `2'F-ANA at 3 4 8 9 10 11 12 14 15` is recorded as 178 a.u.
`2'F-ANA at 1 4 6 7 8 9 11`: “mean fluorescence intensity” 107 a.u.
`2'F-ANA at 2 3 5 7 9 10 11 14 15` — result for “mean fluorescence intensity”: 63.4 a.u.
Under “mean fluorescence intensity”, `2'F-ANA at 4 5 8 10 13 15` is recorded as 48.2 a.u.
For `2'F-ANA at 1 4 7 8 10 12 13 14`, “mean fluorescence intensity” read 54.7 a.u.
`2'F-ANA at 2 3 5 6 9 10 11`: “mean fluorescence intensity” 51.6 a.u.
`2'F-ANA at 1 4 14 15`: “mean fluorescence intensity” 48.9 a.u.

Series 2 — method: RNA Bind-n-Seq; form: RNA; sample: in vitro; concentration: not given; reference: input RNA pool; reading: higher = stronger binding
Target: RING finger protein unkempt homolog, zinc fingers 1-6, GST-SBP tag (UNK, Homo sapiens, UniProt Q9C0B0, residues 30-357)
UniProt Q9C0B0, sequence (30-357, looked up): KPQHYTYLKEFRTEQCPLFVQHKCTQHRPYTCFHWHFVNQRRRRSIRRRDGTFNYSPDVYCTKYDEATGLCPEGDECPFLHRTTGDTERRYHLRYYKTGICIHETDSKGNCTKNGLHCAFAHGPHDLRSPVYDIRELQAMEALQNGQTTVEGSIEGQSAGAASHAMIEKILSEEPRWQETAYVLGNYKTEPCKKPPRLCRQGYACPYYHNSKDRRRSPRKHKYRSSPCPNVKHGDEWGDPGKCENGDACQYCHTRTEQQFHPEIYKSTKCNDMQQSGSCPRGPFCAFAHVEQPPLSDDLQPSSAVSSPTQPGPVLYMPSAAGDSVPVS
Notes: RNA with constant flanks, human-mouse chimeric sites, ends assumed
Constant ends, left off below: GGGAGUUCUACAGUCCGACGAUC … CAACAGAGGAUUGAGCAUCA
With `CGGAGCCCUCCUCUCCCACAGGCCCAAGAUAUAACCCACCAGUGCCUUUUGUCUUCCUGUCAGCUCUAAUCAAUCAUGCCCUGCCUUCACGCCCACACCAAGUGCCCAAAGUGGGGAGGG` the bound/input enrichment was 0.309 ratio.
`GAGUCGAGCAAACUUGAAACAAUUCGUUAUCUUGCAGCCUCAGUGUUCACUUGCUUGGCGAUAGCAUAUUGGGAUUUUAGGUUCUGGAAGGAGAACUGACGAUGAUGCUGCCGCUGCUGC` gave a bound/input enrichment of 0.511 ratio.
The bound/input enrichment of `GUUCGGCUUUGGGAUCAUGCCACAAUGACAGAAGUGAAAUCUCUGAAUUUUAAUAUGUCUGUUAGCAGCAUGGAGUAUAUUCCUGAAGGAGAGAUUUUGGUUAUAACUUAUGGACGAUCU` is reported as 0.353 ratio.
`CAGACUGGCAACUGUUUUUUAGACAUUCACAUCAGACUUACAGAGCACCUGGCCACAUUCUAGGUUUGUGUUAUUUCUCAGCUAUGGAUAUGAUCAAAUGAGAACACUGCUUAACUAAUG` has a bound/input enrichment of 0.343 ratio.
With `GCAGGAUCUUCUAAGUACCAGUGGGACAUUAUGAAAUCCCUUGGCCUCUCUGAUGACGAGAUAGUAAAGUUUUCUGAAGCAGAGCACUGGCUUGAUUAUUUCCCACCACUGGCCGUUCAG` the bound/input enrichment was 0.178 ratio.
`AUCAAAUACUUUGGGGACAUCAUUAGUGUGGGACAGAGACUGUUGCAAGGAGCUCGGAUUUUAGGAAUUCCAGUUAUUGUAACAGAACAAUACCCCAAAGGACUUGGCAGCACCGUUCAA` gave a bound/input enrichment of 0.253 ratio.
With `AACUUCGUGCAUCGGUUUCCCUUUGUAGCUGUUUCAAUUGGCUUCCUUGUAAAUAAAGAGAUGGAGUUUGGAAUUGUGUACAGCUGUGUGGAAGAUAAGAUGUACACCGGCAGGAAAGGG` the bound/input enrichment was 0.355 ratio.
The bound/input enrichment of `AACUUCGUGCAUCGGUUUCCCUUUGUAGCUGUUUCAAUUGGCUUCCUUGUGAAUAAAGAGAUGGAGUUUGGAGUUGUGUACAGCUGUGUGGAAGAUAAGAUGUACACCGGCAGGAAAGGG` is reported as 0.422 ratio.
`CUGAAAAACACAGAUAUCAAAGUUGUUGACUUUGGAAGUGCAACAUAUGAUGAUGAACAUCACAGUACUUUGGUGUCUACCCGGCACUACAGAGCUCCCGAGGUCAUUUUGGCUCUAGGU` has a bound/input enrichment of 0.616 ratio.
`GUGUCCUGCUUUCAACUUAAAUCACUGAGGCAUCUCUACUAUUCUGUGAGCAUCAGGACUGUAGCGCUGUGUCACCACAGAUGAGAACAGAAGCAGCCUUUCUGUGGAGGGUGGGAAUGA` has a bound/input enrichment of 0.267 ratio.
With `GUUCGGCUCUGGGAUCAUGCCACAAUGACAGAAGUGAAAUCUCUGAAUUUUAAUAUGUCUGUUAGUAGUAUGGAAUAUAUUCCUGAAGGAGAGAUUUUGGUUAUUACUUAUGGACGAUCU` the bound/input enrichment was 0.705 ratio.

Series 3 — method: protein binding microarray; form: double-stranded DNA, one strand shown; sample: in vitro; concentration: not given; reference: not given; reading: higher = stronger binding
Target: Histone acetyltransferase KAT6A, winged helix 1, GST fusion (KAT6A, Homo sapiens, UniProt Q92794, residues 1-85)
Notes: 8-mer, flanks averaged, mean of 2 arrays, mostly near background
Target sequence (chain): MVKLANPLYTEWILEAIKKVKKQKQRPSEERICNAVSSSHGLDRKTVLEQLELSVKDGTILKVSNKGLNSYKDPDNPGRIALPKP
The E-score of `AAAGTTAG` is reported as -0.109.
With `AAACTAAG` the E-score was -0.168.
For `AGACAAAA`, the E-score was -0.2.
The E-score of `CCAGATTA` is reported as -0.0951.
For `GGCCGCAC`, the E-score was 0.365.
For `AAGCGAGG`, the E-score was 0.00212.
With `ATTAAGAC` the E-score was -0.219.
`AGTTCCGA` has an E-score of 0.112.
`CAAAGTCA` has an E-score of -0.123.
`ACGATTTA` gave an E-score of -0.177.
With `AATTACCC` the E-score was 0.0342.
`CGCGTCTC` has an E-score of 0.262.
For `CGTAAGGA`, the E-score was -0.0509.
With `GTAAATAA` the E-score was -0.1.
`CGGTTTCC` gave an E-score of 0.254.
For `AGCGATTA`, the E-score was 0.124.
With `CATCCACA` the E-score was -0.27.
The E-score of `CTTCAGTC` is reported as -0.135.
The E-score of `TGAAAAAA` is reported as -0.179.
For `CAGCAATA`, the E-score was -0.0779.
With `ACTTGGTC` the E-score was -0.0997.
With `CAGTGCCG` the E-score was 0.3.
`AAAGTAAT` has an E-score of 0.0589.
With `AGTGCCTA` the E-score was -0.177.
The E-score of `CGAAATAC` is reported as -0.0622.

Series 4 — method: RNA Bind-n-Seq; form: RNA; sample: in vitro; concentration: 365 nM; reference: no-protein control; reading: higher = stronger binding
Target: RNA binding protein fox-1 homolog 2, RRM domain, GST-SBP tag (RBFOX2, Homo sapiens, UniProt O43251-10, residues 100-194)
Notes: natural RNA segment, single round, ends assumed
Constant ends, left off below: GGGAGUUCUACAGUCCGACGAUC … UGGAAUUCUCGGGUGCCAA
Target sequence (chain): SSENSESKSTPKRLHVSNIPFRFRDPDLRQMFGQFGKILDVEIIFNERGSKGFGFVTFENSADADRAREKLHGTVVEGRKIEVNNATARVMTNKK
For `CAUGUCGUAAGGCAGCAGCUGUGCCAGGAUAGCUGGGUCCAUUCAGAGCACCUUGAGAAGUGUUGCAGGGAGGUGUUAAGAAGAGAACUCUGUGCAAACAGUGAUGGAAG`, “RBNS enrichment (R)” read 1.05.
`AGGUGCCACAGAGGGGCAGGCGCACCAGGGGAGGGAGUGCUCACAAGUGAGCCAUAUUUAUUGUCUUUAGGAAAUCACUAAUUGCUCUUUGACUGCACUGUGGGUGAGUG`: “RBNS enrichment (R)” 0.976.
Under “RBNS enrichment (R)”, `CUGGAUCAUGGUUUUCUUCCUUACUUACAGGUUGCUUCACACUGAGUGAUAAUUUAAAAUUGUUUCUAUGUAGAAUCAUUGUCUCUACUGUUGCCCUCUCUGUGUCUGCA` is recorded as 1.23.
For `CGGGUGUUCUGGGGUGUCUGCCCUCUGUCGGCCCUGCUUCCUGCCAGGACGUGGCCUCUUCCGAUCCUUUUCUCUCAGACACUGGAGGUCUCUUCUGCCAUUGUGCUGGU`, “RBNS enrichment (R)” read 0.334.
Under “RBNS enrichment (R)”, `AAUGGUCAUCUAAAAUGAGAGAUUCUGGAUUUUAAUGCAGUUCAAAGUUGAGCUGUAUUUUUGUUGUUGAUUUAUCUGGAUUUUUUUUAAAGCCUUCUAAAACCCAGUGA` is recorded as 0.455.
For `UACCUCUGGGGACAGCUGGCAUGCCUUUGGCUUUGUGUAGAGUAGGGUGGUGAGACCCUUCCUGGCUCCCCUGCUUUGUGAGUUAGGCGUGCUGGGGCACCCUCCUGGCC`, “RBNS enrichment (R)” read 1.42.
Under “RBNS enrichment (R)”, `CUGCUGGCAGCUCCUCCCCAGCAAGGCUGGGCUAGAAGGCAGCUUUAGAAGUGAGCCCCUCUAAUGCCAAGGGAGCGGCUCUGUGCCCAGGAACCCAAGGGGAGGCUAGG` is recorded as 0.817.
For `UUCCCACCACAAAUUAUCAACUGGUUGAUGUGUACACUAAUUACAUUUCAGGAGGACUUAAUGCUAUUUAUGUUGUGCCUCUGCAGGCAAAGCCCUUAAUAAAUAUUUUA`, “RBNS enrichment (R)” read 0.78.
`GAAUUAAUACAGACACCAGAUUUUAGGCUUUGAAUUUGUUCUUAGUUGUUCAUUCCAGUCCUCUAAGUCUCAUUUCGUAUACAUUAUAUAAGCAAAUUAAGAAUUACUCA` — result for “RBNS enrichment (R)”: 0.54.

Excerpt of the above (series 4):
Under “RBNS enrichment (R)”, `AAUGGUCAUCUAAAAUGAGAGAUUCUGGAUUUUAAUGCAGUUCAAAGUUGAGCUGUAUUUUUGUUGUUGAUUUAUCUGGAUUUUUUUUAAAGCCUUCUAAAACCCAGUGA` is recorded as 0.455.
`GAAUUAAUACAGACACCAGAUUUUAGGCUUUGAAUUUGUUCUUAGUUGUUCAUUCCAGUCCUCUAAGUCUCAUUUCGUAUACAUUAUAUAAGCAAAUUAAGAAUUACUCA` — result for “RBNS enrichment (R)”: 0.54.
`AGGUGCCACAGAGGGGCAGGCGCACCAGGGGAGGGAGUGCUCACAAGUGAGCCAUAUUUAUUGUCUUUAGGAAAUCACUAAUUGCUCUUUGACUGCACUGUGGGUGAGUG`: “RBNS enrichment (R)” 0.976.
For `UACCUCUGGGGACAGCUGGCAUGCCUUUGGCUUUGUGUAGAGUAGGGUGGUGAGACCCUUCCUGGCUCCCCUGCUUUGUGAGUUAGGCGUGCUGGGGCACCCUCCUGGCC`, “RBNS enrichment (R)” read 1.42.
Under “RBNS enrichment (R)”, `CUGGAUCAUGGUUUUCUUCCUUACUUACAGGUUGCUUCACACUGAGUGAUAAUUUAAAAUUGUUUCUAUGUAGAAUCAUUGUCUCUACUGUUGCCCUCUCUGUGUCUGCA` is recorded as 1.23.
For `CAUGUCGUAAGGCAGCAGCUGUGCCAGGAUAGCUGGGUCCAUUCAGAGCACCUUGAGAAGUGUUGCAGGGAGGUGUUAAGAAGAGAACUCUGUGCAAACAGUGAUGGAAG`, “RBNS enrichment (R)” read 1.05.
For `CGGGUGUUCUGGGGUGUCUGCCCUCUGUCGGCCCUGCUUCCUGCCAGGACGUGGCCUCUUCCGAUCCUUUUCUCUCAGACACUGGAGGUCUCUUCUGCCAUUGUGCUGGU`, “RBNS enrichment (R)” read 0.334.
Under “RBNS enrichment (R)”, `CUGCUGGCAGCUCCUCCCCAGCAAGGCUGGGCUAGAAGGCAGCUUUAGAAGUGAGCCCCUCUAAUGCCAAGGGAGCGGCUCUGUGCCCAGGAACCCAAGGGGAGGCUAGG` is recorded as 0.817.
For `UUCCCACCACAAAUUAUCAACUGGUUGAUGUGUACACUAAUUACAUUUCAGGAGGACUUAAUGCUAUUUAUGUUGUGCCUCUGCAGGCAAAGCCCUUAAUAAAUAUUUUA`, “RBNS enrichment (R)” read 0.78.
